Published values gathered from unrelated publications.
A part holds a random share of what one study measured. Changes are numbered by the printed parent chain.

Study 1 — method: protein binding microarray; form: double-stranded DNA, one strand shown; sample: in vitro; tested at: not given; baseline: not given; direction: higher = stronger binding
Target: Histone acetyltransferase KAT6A, winged helix 1, GST fusion (KAT6A, Homo sapiens, UniProt Q92794, residues 1-85)
Notes: 8-mer, flanks averaged, mean of 2 arrays, mostly near background
Target sequence (chain): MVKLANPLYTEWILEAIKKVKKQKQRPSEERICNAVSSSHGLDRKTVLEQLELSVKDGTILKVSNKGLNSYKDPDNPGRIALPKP
| Strand | E-score |
| --- | --- |
| ACTACCGG | 0.223 |
| CATTATGA | -0.12 |
| ATACTTCC | -0.0603 |
| GAGTCAGC | -0.0123 |
| ACTATGAG | -0.199 |
| TCCATCGA | -0.167 |
| ACCTCAAG | -0.279 |
| AATCCCTA | -0.0203 |
| CCAACTGG | -0.224 |
| GGGTTTAA | 0.0163 |
| AACGGGAG | 0.0671 |
| ATAGCAAG | -0.0429 |
| ACCGAACA | -0.0749 |
| AGCTGCCG | 0.291 |
| TCCTTTCA | -0.128 |
| CCCCTGAC | 0.046 |
| ATTAATTA | 0.0146 |
| CGTATTGA | -0.0627 |
| ACCCAGAG | -0.28 |
| CGGACAGA | 0.153 |
| CTTATATC | -0.13 |
| AGCTCTAT | -0.0431 |
| AGGTGACA | -0.0658 |

Study 2 — method: universal PBM; form: double-stranded DNA, one strand shown; sample: in vitro; tested at: 600 nM; direction: higher = stronger binding
Target: Sal-like protein 4, full length isoform A (SALL4, Homo sapiens, UniProt Q9UJQ4, residues 1-1053)
Sequence of UniProt Q9UJQ4 (whole entry, looked up): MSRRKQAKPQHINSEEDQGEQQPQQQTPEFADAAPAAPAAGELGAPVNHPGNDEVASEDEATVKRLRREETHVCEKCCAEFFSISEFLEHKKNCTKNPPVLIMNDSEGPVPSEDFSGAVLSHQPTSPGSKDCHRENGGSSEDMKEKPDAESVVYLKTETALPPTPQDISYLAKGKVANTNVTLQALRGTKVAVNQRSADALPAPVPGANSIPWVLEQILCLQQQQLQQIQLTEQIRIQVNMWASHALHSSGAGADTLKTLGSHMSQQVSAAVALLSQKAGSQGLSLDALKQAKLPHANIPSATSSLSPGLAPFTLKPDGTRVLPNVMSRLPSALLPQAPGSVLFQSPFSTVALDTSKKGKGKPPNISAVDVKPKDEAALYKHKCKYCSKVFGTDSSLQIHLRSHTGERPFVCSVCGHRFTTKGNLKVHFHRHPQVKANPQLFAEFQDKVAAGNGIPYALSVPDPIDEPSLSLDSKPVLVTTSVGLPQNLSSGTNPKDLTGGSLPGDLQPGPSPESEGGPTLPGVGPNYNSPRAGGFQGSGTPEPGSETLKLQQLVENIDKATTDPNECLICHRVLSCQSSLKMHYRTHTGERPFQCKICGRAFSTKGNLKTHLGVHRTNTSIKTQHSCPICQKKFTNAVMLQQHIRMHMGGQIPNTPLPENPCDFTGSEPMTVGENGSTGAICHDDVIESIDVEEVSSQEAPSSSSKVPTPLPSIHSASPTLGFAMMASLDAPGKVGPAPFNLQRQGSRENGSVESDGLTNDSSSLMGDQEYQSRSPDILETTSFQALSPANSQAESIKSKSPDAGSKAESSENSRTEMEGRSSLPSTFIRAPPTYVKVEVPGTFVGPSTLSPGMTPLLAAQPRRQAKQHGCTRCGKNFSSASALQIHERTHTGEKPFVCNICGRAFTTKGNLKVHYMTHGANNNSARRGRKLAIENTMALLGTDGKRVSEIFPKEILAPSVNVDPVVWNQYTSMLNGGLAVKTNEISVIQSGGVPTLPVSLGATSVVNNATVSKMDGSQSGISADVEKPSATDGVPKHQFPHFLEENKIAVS
Notes: 8-mer, flanks averaged, mean of replicates
| Strand | E-score |
| --- | --- |
| AATGCGTC | -0.0762 |
| ACTCCAGT | 0.0329 |
| AACGCAGG | -0.176 |
| GTTAAGAA | 0.064 |
| CGTCGGTA | -0.102 |
| CAGGTCTA | 0.0205 |
| GCTAAGCC | -0.245 |
| ACCAGCGA | -0.239 |
| CCGGCAGA | -0.349 |
| GCCCTACC | -0.119 |
| CCGCGTCG | -0.324 |
| AATCTCTC | 0.0899 |
| CTTTTGCC | 0.0583 |
| GCCCAAAA | 0.0481 |
| CGGCTTTA | -0.00713 |
| TCTTCTCA | 0.118 |
| CTAGGTTC | -0.266 |
| CAGTATGG | -0.0507 |
| GGAAGAAC | -0.00531 |

Study 3 — method: DHFR PCA, deep sequencing; sample: yeast; with: (+)-ABA 0.11 µM; baseline: wild-type fitted maximum; direction: higher = stronger binding
Target: ABI1, truncated, D143A, DHFR fusion (Arabidopsis thaliana)
Notes: methotrexate growth selection, single substitutions
Starting sequence: PYL1, truncated, DHFR fusion (Arabidopsis thaliana); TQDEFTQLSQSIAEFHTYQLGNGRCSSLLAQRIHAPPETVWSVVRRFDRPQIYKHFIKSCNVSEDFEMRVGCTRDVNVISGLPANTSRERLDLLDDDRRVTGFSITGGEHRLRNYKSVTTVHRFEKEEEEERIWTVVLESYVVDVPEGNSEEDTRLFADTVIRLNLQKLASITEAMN
| Change | relative binding score |
| --- | --- |
| T17W | -5.1% |
| H55E | 27.7% |
| V43G | -5.33% |
| V40S | -3.3% |
| I172G | -7.52% |
| N114A | 4.09% |
| Q7Y | 34.9% |
| D97N | 38% |
| A30M | 46.3% |
| F103M | -9.04% |
| C72R | -2.93% |
| C60L | -1.28% |
| F66S | 9.44% |

Study 4 — method: RNA Bind-n-Seq; form: RNA; sample: in vitro; tested at: not given; baseline: input RNA pool; direction: higher = stronger binding
Target: RING finger protein unkempt homolog, zinc fingers 1-6, GST-SBP tag (UNK, Homo sapiens, UniProt Q9C0B0, residues 30-357)
Sequence of UniProt Q9C0B0 (30-357, looked up): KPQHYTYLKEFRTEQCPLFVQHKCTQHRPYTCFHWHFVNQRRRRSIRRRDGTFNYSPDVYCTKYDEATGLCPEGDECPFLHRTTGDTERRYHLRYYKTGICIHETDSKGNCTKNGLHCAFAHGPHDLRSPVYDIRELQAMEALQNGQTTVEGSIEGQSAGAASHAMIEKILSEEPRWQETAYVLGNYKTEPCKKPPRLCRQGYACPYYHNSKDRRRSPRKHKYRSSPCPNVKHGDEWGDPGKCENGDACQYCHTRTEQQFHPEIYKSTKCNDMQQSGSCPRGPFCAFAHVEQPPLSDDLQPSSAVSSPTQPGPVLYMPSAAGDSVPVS
Notes: RNA with constant flanks, human and mouse sites, ends assumed
| Strand | bound/input enrichment [ratio] |
| --- | --- |
| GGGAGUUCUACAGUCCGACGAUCACCCUGUCUGUAGGAGGAAAAACUGUAUCACGUUUUCGUAAAGCUACAUCCAUAUUGGAAUUUUACCGGGAACUUGGAUUGCCGCCGAAACAGACAGUUAAAAUCUUUAAUAUAACAGAUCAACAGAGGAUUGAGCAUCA | 0.262 |
| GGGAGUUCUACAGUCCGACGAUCAGAGAACCAGCCCUGGAUGGCGGGUUUCAGAUGCAUUAUGAGAAGACCCCGUUUGAUCAGUUAGCUUUUAUCGAAGAGCUUUUUUCACUGAUGGUUGUCAAUCGUCUGACCGAAGAACUCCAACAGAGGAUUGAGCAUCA | 0.48 |
| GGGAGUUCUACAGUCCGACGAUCCUGUGUGUGCUGAAUAAAUGGCUUGUAAAGAAGUUUUUCCAAGCUGUAACCCAUGCUGUUAUUAUAGUUGCUGCAAAAUGUUCUUCCUGAUAUUGAUUUUAUUUGUUAACUGAAGGUCUCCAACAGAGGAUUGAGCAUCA | 0.546 |
| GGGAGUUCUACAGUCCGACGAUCACACAACUUGAUCAACGAAAGAUUAAACAUCCUACUGCCCUAGGAUUAGAAGUUGGCCAAGAAAUUCAGGUGAAAUACUUUGGACGUGACCCAGCCGAUGGAAGAAUGAGGCUUUCUCGACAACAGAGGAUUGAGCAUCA | 0.209 |
| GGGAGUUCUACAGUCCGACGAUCGCCUGGCUAGUGGAUCAUGUCUAUGCUAUCCGUGAGGCUGCCACCAGCAACCUUAAGAAAUUAGUAGAGAAGUUCGGGAAGGAGUGGGCCCAUGCCACUAUCAUCCCCAAGGUCUUAGCCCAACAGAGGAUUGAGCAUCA | 0.178 |
| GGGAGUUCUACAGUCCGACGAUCUACAGGGGUGCAUACCAUCUUGCAGUGGCUUGGCUGACAUUGCCUCUUUGUCCUGGCCUCUAGUUUUCUUUUGAUAUUUCAUAGCUCUCCUUAGUUUACUCUGCCUGGAUAGAAAGUUGACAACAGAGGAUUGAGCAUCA | 35 |
| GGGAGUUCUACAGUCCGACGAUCUUUCAUCUUGAGGUGGCCAAUAUGGGAUGUGGAAUUUUUACAUGAGUUACACAUGUUUGGCAUAGUACUUUUGGUACAUUGUGGCUUCAGAAGGGCCAGUGUUAAAACUGCUUCCAUGUCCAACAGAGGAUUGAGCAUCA | 0.11 |
| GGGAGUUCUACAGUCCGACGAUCACAGAAAGUUAUAGAGAUUAUAUUGUGAUGCUGGAACUUGGAGUGAGACACACAUCAUUUGGCAUUUGAGUUGAAUGGUAAUUCACAGUAAUGCUGCCGUUGUUCGGGACUUAAAGACACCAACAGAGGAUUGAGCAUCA | 1.98 |

Study 5 — method: RNA Bind-n-Seq; form: RNA; sample: in vitro; tested at: 20 nM; notes: 6-mer, flanks averaged, single round; with: 150 mM LiCl; baseline: input library; direction: higher = stronger binding
Target: TAR DNA-binding protein 43, full length, His tag (TARDBP, Homo sapiens, UniProt Q13148, residues 1-414)
| Strand | 6-mer enrichment (R) |
| --- | --- |
| UGUCAC | 0.907 |
| AACCUG | 0.842 |
| UCAUAC | 0.828 |
| GUAAGU | 1.1 |
| UCCACA | 0.869 |
| CCAAUG | 0.925 |
| UAUCCG | 0.847 |
| UGUCUU | 1.06 |
| CAAGGC | 0.847 |
| GUCGUA | 0.966 |
| GCAGCG | 1.04 |

Study 6 — method: RNA Bind-n-Seq; form: RNA; sample: in vitro; tested at: 200 nM; notes: whole 134-nt RNA, ends assumed; with: 150 mM KCl; baseline: input library; direction: higher = stronger binding
Target: Fragile X messenger ribonucleoprotein 1, C-terminal low-complexity region (Fmr1, Mus musculus, UniProt P35922)
| Strand | log2 enrichment |
| --- | --- |
| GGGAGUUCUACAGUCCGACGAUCCUCAAGUCCUGUGCUACACAUCGUAUGUACCGAAUCGGUUGGGGUUGGUUGGGGAAAGUAUUAUGUUACGCCGUUCGGAUCUGCACUUCCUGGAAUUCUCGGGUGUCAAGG | 1 |
| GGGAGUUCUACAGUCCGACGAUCAAGUCCUGUGCUACACAUCGUAUGUACCGAAUCGGGGAAAGGGGAAAGGGGAAAGGAAAGUAUUAUGUUACGCCGUUCGGAUCUGCACUUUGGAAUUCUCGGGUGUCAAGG | -0.00228 |
| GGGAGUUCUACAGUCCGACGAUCAUAUGAGUAAAAUCUGUCCCUUUUUCCCCCUUUGAAUGAGGUCUUCCAUGUUUGAGGGAAAGUCUUGCACUAUUGCAUAUAUUUUGGGGAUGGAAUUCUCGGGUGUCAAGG | -0.251 |
| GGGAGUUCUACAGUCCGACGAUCGCAGGAAGUAAAAACAAAUGGAAAUGCUUCGGAUAGUGGCAGGGGUGGGGGUUGCUAAGGAAAGGGUGGGAUGGGAGUGGGUAAAGAGCUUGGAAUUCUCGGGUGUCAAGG | 0.152 |
| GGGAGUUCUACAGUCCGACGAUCCAAUGGGAAUGGACCAAAGAGUUUCAGGGAAACUCCAGUAUAUUCCAGAGUCAGAUCUAAGCUCCAGGCACGCCUGAAGAUGUGUUGCUAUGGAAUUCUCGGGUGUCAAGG | -0.0957 |
| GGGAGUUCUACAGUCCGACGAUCCCUCAAGUCCUGUGCUACACAUCGUAUGUACCGAAUCGGGAGGGAGGGGAGGGAAAGUAUUAUGUUACGCCGUUCGGAUCUGCACUUCCAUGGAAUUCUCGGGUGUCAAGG | 1.37 |
| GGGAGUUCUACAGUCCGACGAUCCCUCAAGUCCUGUGCUACACAUCGUAUGUACCGAAUCGGUGGAAAAAGGUGGAAAGUAUUAUGUUACGCCGUUCGGAUCUGCACUUCCAGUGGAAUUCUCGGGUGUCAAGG | 0.183 |
| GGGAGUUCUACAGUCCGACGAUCUGCUGGAGAUGCAAUAUAUGAGGUGGUGAGUCUACAGCGAGAGUCUGACAAGGAGGAACCAGUCACUCCUACUAGUGGAGGGGGUCCAAUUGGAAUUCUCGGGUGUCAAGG | -1.91 |
| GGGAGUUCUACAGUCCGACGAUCUCAAGUCCUGUGCUACACAUCGUAUGUACCGAAUCGGGUUUGGGUUUGGGUUUGGAAAGUAUUAUGUUACGCCGUUCGGAUCUGCACUUCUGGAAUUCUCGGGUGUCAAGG | -0.286 |

Excerpt of the above (study 1):
| Strand | E-score |
| --- | --- |
| AGGTGACA | -0.0658 |
| AACGGGAG | 0.0671 |
| CCAACTGG | -0.224 |
| ACCTCAAG | -0.279 |
| CATTATGA | -0.12 |
| ATTAATTA | 0.0146 |
| CGGACAGA | 0.153 |
